Measured values collected from several papers.
Compare with care: the assays were run in different laboratories. Numbers after ± are the reported error.
U2AF2: U2AF2 148-342 (Homo sapiens, UniProt P26368)
Sequence of UniProt P26368 (whole entry, looked up): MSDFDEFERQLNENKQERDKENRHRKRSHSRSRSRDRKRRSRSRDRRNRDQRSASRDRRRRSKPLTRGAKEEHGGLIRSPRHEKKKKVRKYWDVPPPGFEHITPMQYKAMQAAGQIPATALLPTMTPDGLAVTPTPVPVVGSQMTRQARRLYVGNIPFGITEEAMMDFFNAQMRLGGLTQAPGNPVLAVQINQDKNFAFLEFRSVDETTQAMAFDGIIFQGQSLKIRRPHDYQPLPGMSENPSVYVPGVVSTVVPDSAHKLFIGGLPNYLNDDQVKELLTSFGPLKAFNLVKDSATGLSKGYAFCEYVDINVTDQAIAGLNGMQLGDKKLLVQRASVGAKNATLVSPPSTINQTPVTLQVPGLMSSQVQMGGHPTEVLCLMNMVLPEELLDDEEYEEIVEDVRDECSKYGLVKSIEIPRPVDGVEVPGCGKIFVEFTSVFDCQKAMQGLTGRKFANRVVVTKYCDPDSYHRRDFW
B1: efeB (Bacillus subtilis, UniProt P39597); chain IGASGLGGLAPLVQTAAKPSKKDEKEEEQIVPFYGKHQAGITTAHQTYVYFAALDVTAKDKSDIITLFRNWTSLTQMLTSGKKMSAEQRNQYLPPQDTGESADLSPSNLTVTFGFGPGFFEKDGKDRFGLKSKKPKHLAALPAMPNDNLDEKQGGGDICIQVCADDEQVAFHALRNLLNQAVGTCEVRFVNKGFLSGGKNGETPRNLFGFKDGTGNQSTKDDTLMNSIVWIQSGEPDWMTGGTYMAFRKIKMFLEVWDRSSLKDQEDTFGRRKSSGAPFGQKKETDPVKLNQIPSNSHVSLAKSTGKQILRRAFSYTEGLDPKTGYMDAGLLFISFQKNPDNQFIPMLKALSAKDALNEYTQTIGSALYACPGGCKKGEYIAQRLLES
B2: enzyme (Pseudomonas poae, UniProt A0A2S9EJ63); chain MSTQHYDYIIVGGGSAGSVLANRLSAQADKRVLLIEAGADTPEHDTPTDILDGLQPWLPRLAGERYFWPGLNILRASEHGDIPREPQLYEQARILGGGSSVNMMVANRGLPRDYDEWARLGADGWDWQGVLPYFRKLERDLDFGHSHPEQHGQDGPIPIARVDSRHWGSFTRASAQALHTQGLNDIVDQNGRFEDGYFAPAVAIEHDQRVSSARAYLNAAVRARPNLSVWADTTVRQLTVKGQRVTGVQAVRDGRTVELAGDEVILAAGALQSPAFLLRAGIGPADQLRDLGIEVIADRPGVGRNLWDHSSIGLSASLHHPQVPSDEPGAAHLLAARVSSGVEPSVPGDLYLGIAPNAALGLASAVLWVNKPSSSGHLRLRSKDPADYPAVEFNLLSDRRDLERLRQGLRLLARVFAHPAVAAFSGPPRLSRFAQASNEGPLLSELLANDAQLERYLRTHVGGVWHASGTCRIGRADDPQAVVDHAGRVHGVQGLRVADASVFPSIPTANTNLPTLMIAEKIAEAILANA
B3: enzyme (UniProt A0A6P1VWL4); chain QTSYQPTPDNLAARKAFQDDKFGLFIHWGVYSILGDGEWVMNQRQIPIKDYEKLPTFFNPTAFDAKEWVTMAKNAGMKYITITSKHHDGFAMYDSKVSDYDIVDRTPYKKDVLKALADECRAQGIKLFFYHSHLDWHHPDYFPRGQTGKTAGRPESGDFDKYLTYMDTQLSELLTNYGPVGGIWFDGWWDQSAHDKNDPHKTVVDWKLDRTYSLIHKLQPAALIGNNHHVAPFPGEDFQMFEKDLPGQNKTGFSGESVIGQLPLETCETMNGAWGFNIKDNRYKSTKDLVQYLVKAAGHNANFLLNVGPMPNGKIQPEFVKTLAEVGQWMQKNGETIYGTRGGPVPARDWGVTTAVGNRVFVHILNWEDRQLTLPPVSGKIRSAKLFADKSPVKVVQTPEGIVLTMNSAPSADATDTIIELEMAPEVAKK
B4: aspC A106G/A17N/A218G/A278L/A281T/A8Q/D18E/F210I/F212I/F350Y/G15S/G249S/I187A/I279A/I29V/I33V/I341V/I5L/I68L/I71L/L46M/M321L/M380L/N285S/N30D/N64T/S129T/S135A/S273G/S351L/T100S/V125I/V136I/V375I/Y244C (Escherichia coli, UniProt P00509); chain MFENLTAQPADPILSLNELFRADERPGKVDLGVGVYKDETGKTPVMTSVKKAEQYLLENETTKTYLGLDGLPEFGRCTQELLFGKGSALINDKRARTAQSPGGTGGLRVAADFLAKNTSVKRVWISNPTWPNHKAIFNSAGLEVREYAYYDAENHTLDFDALINSLNEAQAGDVVLFHGCCHNPTGADPTLEQWQTLAQLSVEKGWLPLIDIAYQGFGRGLEEDAEGLRAFAAMHKELIVASSCSKNFSLYNERVGACTLVAADSETVDRAFGQMKALARTNYSSPPAHGASVVATILSNDALRAIWEQELTDMRQRIQRLRQLFVNTLQEKGANRDFSFVIKQNGMFSYLGLTKEQVLRLREEFGVYAVASGRINVAGLTPDNMAPLCEAIVAVL
B5: SCO6712 S292F (Streptomyces coelicolor, UniProt Q9XAL8); chain AKGITARTAPAGGEVRHLKMYAEKLADGQMGYGFEKGKASVPGPLIEVNEGDTLHIEFTNTMDVRASLHVHGLDYEISSDGTAMNKSDVEPGGTRTYTWRTHKPGRRDDGTWRPGSAGYWHYHDHVVGTEHGTGGIRNGLYGPVIVRRKGDVLPDATHTIVFNDMTINNRKPHTGPDFEATVGDRVEIVMITHGEYYHTFHMHGHRWADNRTGILTGPDDPSRVIDNKITGPADSFGFQIIAGEGVGAGAWMYHCHVQFHSDMGMVGLFLVKKPDGTIPGYEPHEHGGATAKSGESGEPTGGAAAHEHEH
B6: enzyme (Rhodospirillum rubrum, UniProt Q2RSU5); chain MSDSNDDRPFRPFQSQYRWPGVDLLAYKEEGSAPFRSVTRQVLFSGNGLTGELRYFEVGPGGHSTLERHQHAHGVMILKGRGHAMVGRAVSAVAPYDLVTIPGWSWHQFRAPADEALGFLCMVNAERDKPQLPTEADLAMLRADDAVAAFLDGLAG
B7: enzyme (Methylibium petroleiphilum, UniProt A2SL37); chain PIIQMNLLEGRTVEQKRNAVAAITEAVVRTLDVRPDQVRILINELGVEHFSVAGQTAAMRQAAAANAKDL
B8: human MTHFD1L; sequence looked up; chain SSGGGGGGGGGREGLLGQRRPQDGQARSSCSPGGRTPAARDSIVREVIQNSKEVLSLLQEKNPAFKPVLAIIQAGDDNLMQEINQNLAEEAGLNITHICLPPDSSEAEIIDEILKINEDTRVHGLALQISENLFSNKVLNALKPEKDVDGVTDINLGKLVRGDAHECFVSPVAKAVIELLEKSGVNLDGKKILVVGAHGSLEAALQCLFQRKGSMTMSIQWKTRQLQSKLHEADIVVLGSPKPEEIPLTWIQPGTTVLNCSHDFLSGKVGCGSPRIHFGGLIEEDDVILLAAALRIQNMVSSGRRWLREQQHRRWRLHCLKLQPLSPVPSDIEISRGQTPKAVDVLAKEIGLLADEIEIYGKSKAKVRLSVLERLKDQADGKYVLVAGITPTPLGEGKSTVTIGLVQALTAHLNVNSFACLRQPSQGPTFGVKGGAAGGGYAQVIPMEEFNLHLTGDIHAITAANNLLAAAIDTRILHENTQTDKALYNRLVPLVNGVREFSEIQLARLKKLGINKTDPSTLTEEEVSKFARLDIDPSTITWQRVLDTNDRFLRKITIGQGNTEKGHYRQAQFDIAVASEIMAVLALTDSLADMKARLGRMVVASDKSGQPVTADDLGVTGALTVLMKDAIKPNLMQTLEGTPVFVHAGPFANIAHGNSSVLADKIALKLVGEEGFVVTEAGFGADIGMEKFFNIKCRASGLVPNVVVLVATVRALKMHGGGPSVTAGVPLKKEYTEENIQLVADGCCNLQKQIQITQLFGVPVVVALNVFKTDTRAEIDLVCELAKRAGAFDAVPCYHWSVGGKGSVDLARAVREAASKRSRFQFLYDVQVPIVDKIRTIAQAVYGAKDIELSPEAQAKIDRYTQQGFGNLPICMAKTHLSLSHQPDKKGVPRDFILPISDVRASIGAGFIYPLVGTMSTMPGLPTRPCFYDIDLDTETEQVKGLF
Sequence of UniProt P78804 (whole entry, looked up): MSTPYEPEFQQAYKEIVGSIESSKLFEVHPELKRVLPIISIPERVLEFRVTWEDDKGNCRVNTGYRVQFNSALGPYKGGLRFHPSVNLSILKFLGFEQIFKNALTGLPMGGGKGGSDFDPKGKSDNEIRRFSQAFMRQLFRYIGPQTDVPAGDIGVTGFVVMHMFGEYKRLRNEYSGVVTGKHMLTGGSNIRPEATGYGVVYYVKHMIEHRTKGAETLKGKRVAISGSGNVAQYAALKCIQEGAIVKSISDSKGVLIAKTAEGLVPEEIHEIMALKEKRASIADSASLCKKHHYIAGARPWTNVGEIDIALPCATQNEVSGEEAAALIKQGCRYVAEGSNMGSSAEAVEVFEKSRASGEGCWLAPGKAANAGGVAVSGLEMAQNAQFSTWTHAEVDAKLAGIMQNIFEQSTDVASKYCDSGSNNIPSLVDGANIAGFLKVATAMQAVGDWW

Substance	tested on	test	system	conditions	scale	quantity	result
B1 (efeB)	CN(C)c1ccc(C(=C2C=CC(=[N+](C)C)C=C2)c2ccccc2)cc1	steady-state kinetics		pH 4, 25 °C, apparent		kcat/Km	5800 M⁻¹ s⁻¹
gdh N97F (Bacillus subtilis)	NC(=O)c1ccc[n+]([C@@H]2O[C@H](COP(=O)(O)OP(=O)(O)OC[C@H]3O[C@@H](n4cnc5c(N)ncnc54)[C@H](O)[C@@H]3O)[C@@H](O)[C@H]2O)c1	steady-state kinetics		pH 8, 55 °C		kcat/Km	42300 ± 1830 M⁻¹ s⁻¹
AUUCGUUUU (ssRNA)	U2AF2	sequencing of bound RNA	RNA	motif only		Kd	5.48 µM
B2 (enzyme)	O=Cc1ccc(C=O)o1	steady-state kinetics		pH 8, 30 °C, together with: 2 µM FAD		kcat/Km	3.36 M⁻¹ s⁻¹
human CKAP5	CYB5R4 knockout human cells	PP4 interaction, 3xFLAG-PP4C IP-MS		concentration not given	relative to: CYB5R4 KO over parental	log2 fold change	0.77
B3 (enzyme)	C[C@@H]1O[C@@H](Oc2ccc([N+](=O)[O-])cc2Cl)[C@@H](O)[C@H](O)[C@@H]1O	steady-state kinetics		pH 6.4, 37 °C		kcat/Km	38500 M⁻¹ s⁻¹
rCR (Lodderomyces parapsilosis, UniProt A1X808)	O=C(CO)c1ccccc1	steady-state kinetics		pH 7, 30 °C		kcat/Km	6880 M⁻¹ s⁻¹
enzyme N248Y/Q325R/R246H/R328K (Arabidopsis thaliana, UniProt O24495)	C[C@@H](O)C(=O)SC[C@H](NC(=O)CC[C@H](N)C(=O)O)C(=O)NCC(=O)O	steady-state kinetics		pH 7.2, 25 °C		kcat/Km	70000 ± 50000 M⁻¹ s⁻¹
acsA (Pseudomonas chlororaphis, UniProt Q5CD72)	O=C(O)CCC(F)(F)F	steady-state kinetics		pH 7		kcat/Km	16.7 ± 16.7 M⁻¹ s⁻¹
enzyme (Ectocarpus siliculosus, UniProt D7FYY3)	Nc1ncnc2c1ncn2[C@@H]1O[C@H](COP(=O)(O)OP(=O)(O)O)[C@@H](O)[C@H]1O	steady-state kinetics		pH 5.5, 25 °C, together with: 16 mM PEP		kcat/Km	140000 M⁻¹ s⁻¹
B4	N[C@@H](Cc1ccc(O)cc1)C(=O)O	steady-state kinetics		pH 7.5, 25 °C, together with: PMP 20 µM		kcat/Km	210 M⁻¹ s⁻¹
HNL C81L/E79H/G176S/H103V/K236M/N104A/T11G/V106F (Hevea brasiliensis)	CC(=O)Oc1ccc([N+](=O)[O-])cc1	steady-state kinetics		pH 7.2, 22 °C		kcat/Km	417 M⁻¹ s⁻¹
CUCCUAACA (ssRNA)	U2AF2	sequencing of bound RNA	RNA	motif only		Kd	1.92 µM
B5 (SCO6712 S292F)	CCn1c(=NN=c2sc3cc(S(=O)(=O)O)ccc3n2CC)sc2cc(S(=O)(=O)O)ccc21	steady-state kinetics		pH 7, 37 °C, NaCl 150 mM, together with: O2 cosubstrate		kcat/Km	1000 ± 100 M⁻¹ s⁻¹
B6 (enzyme)	CSCC(=O)[C@@H](O)[C@H](O)COP(=O)(O)O	steady-state kinetics		together with: DTT		kcat/Km	200000 M⁻¹ s⁻¹
enzyme (Schizosaccharomyces pombe, UniProt P78804)	NC(=O)C1=CN([C@@H]2O[C@H](COP(=O)(O)OP(=O)(O)OC[C@H]3O[C@@H](n4cnc5c(N)ncnc54)[C@H](OP(=O)(O)O)[C@@H]3O)[C@@H](O)[C@H]2O)C=CC1	steady-state kinetics		pH 7, 30 °C, apparent		kcat/Km	1e+06 ± 100000 M⁻¹ s⁻¹
B7 (enzyme)	C/C(=C\C=C(/O)C(=O)O)C(=O)O	steady-state kinetics		pH 7.3, 24 °C		kcat/Km	16000 M⁻¹ s⁻¹
B8 (human MTHFD1L)	PP6C (human)	co-immunoprecipitation, IP-MS	CYB5R4 knockout cells	concentration not given	relative to: CYB5R4 knockout over parental	log2 fold change	-0.43
